# Published values from different studies.
# Compare with care: the assays were run in different laboratories.
# Alpha-carbonic anhydrase: Alpha-carbonic anhydrase (Enterococcus faecium, UniProt Q3XYE8)
# Ubiquitin carboxyl-terminal hydrolase 39 ZnF-UBD domain: Ubiquitin carboxyl-terminal hydrolase 39, ZnF-UBD domain (Homo sapiens, UniProt Q53GS9)
# UniProt Q53GS9, sequence (whole entry, looked up): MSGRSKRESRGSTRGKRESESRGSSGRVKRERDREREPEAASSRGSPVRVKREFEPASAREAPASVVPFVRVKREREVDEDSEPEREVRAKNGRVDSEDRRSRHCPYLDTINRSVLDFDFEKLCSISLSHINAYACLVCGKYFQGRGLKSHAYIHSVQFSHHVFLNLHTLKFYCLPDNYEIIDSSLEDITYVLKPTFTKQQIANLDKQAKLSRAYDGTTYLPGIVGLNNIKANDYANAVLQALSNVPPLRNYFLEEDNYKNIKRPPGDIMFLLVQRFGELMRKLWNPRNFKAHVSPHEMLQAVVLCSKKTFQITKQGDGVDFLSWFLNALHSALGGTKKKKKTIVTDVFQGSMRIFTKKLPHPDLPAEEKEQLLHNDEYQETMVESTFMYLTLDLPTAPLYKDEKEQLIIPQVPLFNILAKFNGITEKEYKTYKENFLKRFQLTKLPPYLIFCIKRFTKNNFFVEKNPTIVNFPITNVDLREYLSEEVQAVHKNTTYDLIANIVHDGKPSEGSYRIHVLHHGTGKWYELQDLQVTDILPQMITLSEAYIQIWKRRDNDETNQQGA
SMILES,tested on,assay,test system,setting,how to read,measurement,value
CCn1c(-c2nonc2N)nc2c(C#CC(C)(C)O)ncc(OC[C@H]3CCCNC3)c21,iCell Cardiomyocytes (hiPSC-derived),cellular impedance,,"concentration not given, 24 h",reference: control,cell index,91.2%
Cn1cc(-c2ccc(-c3cncc(Cl)c3N3CCC4(CCNC4=O)CC3)cc2)cn1,COLO 205,"gene expression, microarray, measured: PLK1 mRNA",,"concentration not given, 2 h",reference: untreated cells,log2 fold change,-2.46
OCCn1cc(-c2ccc3c(c2)CC/C3=N\O)c(-c2ccncc2)n1,iCell Cardiomyocytes (hiPSC-derived),cellular impedance,,"concentration not given, 24 h",reference: control,cell index,92.1%
O=C(O)CCO,,"binding, equilibrium dialysis LC-MS",,"5 µM, thermostabilized A2AR-BRIL construct","reference: no-protein control, direction not given",z-scored log2 fold change,-0.0261
C#Cc1cccc(Nc2ncnc3cc(OCCOC)c(OCCOC)cc23)c1,NLRP3 inflammasome (mouse),,mouse BMDM,10 µM,,inhibition,5.64%
O=C[C@H](O)[C@@H](O)[C@@H](O)[C@H](O)CO,,"binding, equilibrium dialysis LC-MS",,"5 µM, thermostabilized A2AR-BRIL construct","reference: no-protein control, direction not given",z-scored log2 fold change,-1.54
CCOc1cc2ncc(C#N)c(Nc3ccc(OCc4ccccn4)c(Cl)c3)c2cc1NC(=O)/C=C/CN(C)C,iCell Cardiomyocytes (hiPSC-derived),CellTiter-Glo,,"concentration not given, 24 h",reference: control,ATP level,92.9%
NS(=O)(=O)c1nnc(NC(=O)C2CCCC3(CCCCC3)O2)s1 (stereo not drawn),Alpha-carbonic anhydrase,"CO2 hydration, inhibitor, stopped-flow kinetics",,,,Ki,0.0426 µM
O=C(O)c1cc(O)ccc1O,,"binding, equilibrium dialysis LC-MS",,"5 µM, thermostabilized A2AR-BRIL construct","reference: no-protein control, direction not given",z-scored log2 fold change,0.209
CCCS(=O)(=O)Nc1ccc(F)c(C(=O)c2c[nH]c3ncc(Cl)cc23)c1F,iCell Cardiomyocytes (hiPSC-derived),xCELLigence Cardio impedance,,"concentration not given, 2 h",reference: control,beat rate,104%
CNC(=O)c1cc(Oc2ccc(NC(=O)Nc3cc(C(C)(C)C)nn3-c3ccc4ncccc4c3)c(F)c2)ccn1,NLRP3 inflammasome (mouse),,mouse BMDM,10 µM,,inhibition,50.7%
CC(C)(C)OCC(=O)Nc1nnc(S(N)(=O)=O)s1,Alpha-carbonic anhydrase,"CO2 hydration, inhibitor, stopped-flow kinetics",,,,Ki,0.0752 µM
COCCNCc1ccc(-c2cc3nccc(Oc4ccc(NC(=O)C5(C(=O)Nc6ccc(F)cc6)CC5)cc4F)c3s2)nc1,NLRP3 inflammasome (mouse),,mouse BMDM,10 µM,,inhibition,-16.4%
O=C(O)[C@@H](O)[C@H](O)[C@H](O)[C@@H](O)C(=O)O,,"binding, equilibrium dialysis LC-MS",,"5 µM, thermostabilized A2AR-BRIL construct","reference: no-protein control, direction not given",z-scored log2 fold change,0.195
CS(=O)(=O)N1CCN(Cc2cc3nc(-c4cccc5[nH]ncc45)nc(N4CCOCC4)c3s2)CC1,iCell Cardiomyocytes (hiPSC-derived),cellular impedance,,"concentration not given, 24 h",reference: control,cell index,87.5%
CCc1nc(C(N)=O)c(Nc2ccc(N3CCC(N4CCN(C)CC4)CC3)c(OC)c2)nc1NC1CCOCC1,NLRP3 inflammasome (mouse),,mouse BMDM,10 µM,,inhibition,-80.9%
Cc1ncc(CO)c(C=O)c1O,,"binding, equilibrium dialysis LC-MS",,"5 µM, thermostabilized A2AR-BRIL construct","reference: no-protein control, direction not given",z-scored log2 fold change,0.509
Cc1cccc(-c2nn3c(c2-c2ccnc4ccc(C(N)=O)cc24)CCC3)n1,NLRP3 inflammasome (mouse),,mouse BMDM,10 µM,,inhibition,19%
O=C[C@@H](O)[C@@H](O)[C@H](O)[C@H](O)COP(=O)(O)O,,"binding, equilibrium dialysis LC-MS",,"5 µM, thermostabilized A2AR-BRIL construct","reference: no-protein control, direction not given",z-scored log2 fold change,0.126
COc1cc2c(N3CCN(C(=O)Nc4ccc(OC(C)C)cc4)CC3)ncnc2cc1OCCCN1CCCCC1,iCell Cardiomyocytes (hiPSC-derived),xCELLigence Cardio impedance,,"concentration not given, 2 h",reference: control,beat amplitude,98%
O=C(O)CCOc1ccccc1,Ubiquitin carboxyl-terminal hydrolase 39 ZnF-UBD domain,,,,,Kd,> 1000 µM
OC(CCN1CCCCC1)(c1ccccc1)C1CC2C=CC1C2 (stereo not drawn),,resting-state EEG,healthy elderly humans,"oral, 2 mg, eyes open, LS mean",reference: baseline,"change, Gamma EEG power, in O2-Pz",7.9%
OC[C@H]1O[C@H](OCC2O[C@@H](O)[C@H](O)[C@@H](O)[C@@H]2O)[C@H](O)[C@@H](O)[C@H]1O (stereo partly drawn),,"binding, equilibrium dialysis LC-MS",,"5 µM, thermostabilized A2AR-BRIL construct","reference: no-protein control, direction not given",z-scored log2 fold change,0.268
CC[C@H](Nc1ncnc2[nH]cnc12)c1nc2cccc(F)c2c(=O)n1-c1ccccc1,NLRP3 inflammasome (mouse),,mouse BMDM,10 µM,,inhibition,39.4%
O=C(O)CCn1cnc2ccccc21,Ubiquitin carboxyl-terminal hydrolase 39 ZnF-UBD domain,,,,,Kd,> 1000 µM
Cn1c(Nc2ccc(C(F)(F)F)cc2)nc2cc(Oc3ccnc(-c4ncc(C(F)(F)F)[nH]4)c3)ccc21,iCell Cardiomyocytes (hiPSC-derived),xCELLigence Cardio impedance,,"concentration not given, 2 h",reference: control,beat rate,104%
COc1cc2ncnc(Oc3cccc(NC(=O)Nc4cc(C(C)(C)C(F)(F)F)on4)c3)c2cc1OC,NLRP3 inflammasome (mouse),,mouse BMDM,10 µM,,inhibition,-46.8%
O=C(O)c1cc(O)c2cccc(O)c2n1,,"binding, equilibrium dialysis LC-MS",,"5 µM, thermostabilized A2AR-BRIL construct","reference: no-protein control, direction not given",z-scored log2 fold change,0.632
Cc1cc(Nc2cc(CN3CCOCC3)c3nc(C)c(Cc4ccc(Cl)cc4F)n3n2)n[nH]1,NLRP3 inflammasome (mouse),,mouse BMDM,10 µM,,inhibition,-8.41%
CNC(=O)c1cc(Oc2ccc(NC(=O)Nc3ccc(Cl)c(C(F)(F)F)c3)cc2)ccn1,iCell Cardiomyocytes (hiPSC-derived),xCELLigence Cardio impedance,,"concentration not given, 2 h",reference: control,beat rate,95.2%

# Some of these lines once more:
SMILES,tested on,assay,test system,setting,how to read,measurement,value
CCc1nc(C(N)=O)c(Nc2ccc(N3CCC(N4CCN(C)CC4)CC3)c(OC)c2)nc1NC1CCOCC1,NLRP3 inflammasome (mouse),,mouse BMDM,10 µM,,inhibition,-80.9%
Cc1ncc(CO)c(C=O)c1O,,"binding, equilibrium dialysis LC-MS",,"5 µM, thermostabilized A2AR-BRIL construct","reference: no-protein control, direction not given",z-scored log2 fold change,0.509
Cc1cccc(-c2nn3c(c2-c2ccnc4ccc(C(N)=O)cc24)CCC3)n1,NLRP3 inflammasome (mouse),,mouse BMDM,10 µM,,inhibition,19%
O=C[C@@H](O)[C@@H](O)[C@H](O)[C@H](O)COP(=O)(O)O,,"binding, equilibrium dialysis LC-MS",,"5 µM, thermostabilized A2AR-BRIL construct","reference: no-protein control, direction not given",z-scored log2 fold change,0.126
